Values quoted from earlier work as cited in several papers.
Numbered parts are unrelated; values within a part may stem from several laboratories. Numbers after ± are the reported error. In brackets after ≈: the same amount, converted by molar mass.

Set 1 — organism: Cryptosporidium parvum; technique: high-throughput screen; concentration: concentration not given; endpoint: activity
NS(=O)(=O)c1cc(C(=O)O)c(NCc2ccco2)cc1Cl: inactive
CC(C)(C#N)c1cc(Cn2cncn2)cc(C(C)(C)C#N)c1: inactive
COc1cc(OC)c(C(=O)CCCN2CCCC2)c(OC)c1.Cl: inactive
CCC[C@@H]1C[C@@H](C(=O)N[C@@H]([C@H]2O[C@H](SC)[C@H](O)[C@@H](O)[C@H]2O)[C@@H](C)O)N(C)C1: inactive
CC(COc1ccccc1)N(CCCl)Cc1ccccc1 (centres unmarked): inactive
CCN(CC)C(=O)C1(c2ccccc2)CC1CN.Cl (centres unmarked): inactive
COc1ccc2[nH]c([S+]([O-])Cc3ncc(C)c(OC)c3C)nc2c1 (centres unmarked): inactive
CCn1cc(C(=O)O)c(=O)c2cc(F)c(N3CCNCC3)cc21: inactive
CC(=O)O[C@]1(C(C)=O)CC[C@H]2[C@@H]3C[C@H](C)C4=CC(=O)CC[C@]4(C)[C@H]3CC[C@@]21C: inactive
CCCSc1ccc2nc(NC(=O)OC)[nH]c2c1: inactive
CCCC(CCC)C(=O)O: inactive
CC1(C)S[C@@H]2[C@H](/N=C/N3CCCCCC3)C(=O)N2[C@H]1C(=O)O: inactive
CN(C)CCOC(C)(c1ccccc1)c1ccccn1 (centres unmarked): inactive
CCCCNc1cc(C(=O)O)cc(S(N)(=O)=O)c1Oc1ccccc1: inactive
CC(=O)SCC(Cc1ccccc1)C(=O)NCC(=O)OCc1ccccc1 (centres unmarked): inactive
NCC(=O)CCC(=O)O: inactive
Cc1onc(-c2ccccc2)c1C(=O)N[C@@H]1C(=O)N2[C@@H]1SC(C)(C)[C@@H]2C(=O)O: inactive
CCc1c2c(nc3ccc(OC(=O)N4CCC(N5CCCCC5)CC4)cc13)-c1cc3c(c(=O)n1C2)COC(=O)[C@]3(O)CC.Cl: inactive
CCCNC(=O)NS(=O)(=O)c1ccc(Cl)cc1: inactive
Cc1c2oc3c(C)ccc(C(=O)N[C@@H]4C(=O)N[C@H](C(C)C)C(=O)N5CCC[C@H]5C(=O)N(C)CC(=O)N(C)[C@@H](C(C)C)C(=O)O[C@@H]4C)c3nc-2c(C(=O)N[C@@H]2C(=O)N[C@H](C(C)C)C(=O)N3CCC[C@H]3C(=O)N(C)CC(=O)N(C)[C@@H](C(C)C)C(=O)O[C@@H]2C)c(N)c1=O: inactive
Cc1ccnc2c1NC(=O)c1cccnc1N2C1CC1: inactive
C[C@]12C[C@H](O)[C@H]3[C@@H](CCC4=CC(=O)CC[C@@]43C)[C@@H]1CC[C@@H]2C(=O)CO: inactive
O=C1CC[C@@H](C(=O)N2CSC[C@H]2C(=O)O)N1: inactive
CN(CCOc1ccc(CC2SC(=O)NC2=O)cc1)c1ccccn1 (centres unmarked): inactive
CN1C(=O)CC[C@H]1c1cccnc1: inactive

Single results of other studies
PIK3C2B: Phosphatidylinositol 4-phosphate 3-kinase C2 domain-containing subunit beta (PIK3C2B, Homo sapiens, UniProt O00750)
UniProt O00750, sequence (whole entry, looked up): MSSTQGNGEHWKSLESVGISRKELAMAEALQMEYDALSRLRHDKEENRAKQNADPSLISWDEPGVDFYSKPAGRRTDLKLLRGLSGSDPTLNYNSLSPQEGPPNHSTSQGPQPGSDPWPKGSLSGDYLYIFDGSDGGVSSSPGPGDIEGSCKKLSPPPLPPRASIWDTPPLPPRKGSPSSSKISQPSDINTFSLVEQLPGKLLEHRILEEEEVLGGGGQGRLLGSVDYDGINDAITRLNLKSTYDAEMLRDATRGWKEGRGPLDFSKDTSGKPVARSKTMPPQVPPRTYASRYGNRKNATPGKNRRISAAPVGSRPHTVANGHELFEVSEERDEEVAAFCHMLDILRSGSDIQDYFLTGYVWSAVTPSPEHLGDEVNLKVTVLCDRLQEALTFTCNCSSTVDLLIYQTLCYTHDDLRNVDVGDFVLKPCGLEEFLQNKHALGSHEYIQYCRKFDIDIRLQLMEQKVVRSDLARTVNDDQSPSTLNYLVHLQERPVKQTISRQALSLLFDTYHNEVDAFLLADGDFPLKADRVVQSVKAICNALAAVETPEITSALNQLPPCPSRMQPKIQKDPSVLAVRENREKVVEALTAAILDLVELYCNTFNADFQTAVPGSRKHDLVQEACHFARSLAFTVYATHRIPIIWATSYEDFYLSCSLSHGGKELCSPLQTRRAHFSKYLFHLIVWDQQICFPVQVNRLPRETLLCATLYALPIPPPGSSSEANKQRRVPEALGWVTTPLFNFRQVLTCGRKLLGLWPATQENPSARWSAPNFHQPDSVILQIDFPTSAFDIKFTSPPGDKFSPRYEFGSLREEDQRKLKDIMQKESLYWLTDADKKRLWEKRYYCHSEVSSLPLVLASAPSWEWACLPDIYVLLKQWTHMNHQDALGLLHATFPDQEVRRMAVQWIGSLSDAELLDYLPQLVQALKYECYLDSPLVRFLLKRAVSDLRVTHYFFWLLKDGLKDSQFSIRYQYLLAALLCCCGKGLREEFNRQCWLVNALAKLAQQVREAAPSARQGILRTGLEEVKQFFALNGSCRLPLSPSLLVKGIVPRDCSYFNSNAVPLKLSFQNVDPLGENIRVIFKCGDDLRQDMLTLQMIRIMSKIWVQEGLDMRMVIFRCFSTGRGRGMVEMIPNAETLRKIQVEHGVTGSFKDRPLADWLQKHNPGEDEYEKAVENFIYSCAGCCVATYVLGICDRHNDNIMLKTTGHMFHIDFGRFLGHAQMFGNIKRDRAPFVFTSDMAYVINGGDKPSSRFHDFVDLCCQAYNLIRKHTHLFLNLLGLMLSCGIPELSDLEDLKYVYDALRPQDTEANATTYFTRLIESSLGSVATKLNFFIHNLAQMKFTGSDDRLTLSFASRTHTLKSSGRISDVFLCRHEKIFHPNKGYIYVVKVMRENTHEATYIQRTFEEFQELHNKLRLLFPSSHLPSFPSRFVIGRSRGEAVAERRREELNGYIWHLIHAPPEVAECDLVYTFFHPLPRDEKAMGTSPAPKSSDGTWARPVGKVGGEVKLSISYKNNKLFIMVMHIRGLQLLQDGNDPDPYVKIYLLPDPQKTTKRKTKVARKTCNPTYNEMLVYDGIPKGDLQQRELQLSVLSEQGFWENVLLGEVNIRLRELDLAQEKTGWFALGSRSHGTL
PTGS2: Prostaglandin G/H synthase 2 (PTGS2, Homo sapiens, UniProt P35354)
UniProt P35354, sequence (whole entry, looked up): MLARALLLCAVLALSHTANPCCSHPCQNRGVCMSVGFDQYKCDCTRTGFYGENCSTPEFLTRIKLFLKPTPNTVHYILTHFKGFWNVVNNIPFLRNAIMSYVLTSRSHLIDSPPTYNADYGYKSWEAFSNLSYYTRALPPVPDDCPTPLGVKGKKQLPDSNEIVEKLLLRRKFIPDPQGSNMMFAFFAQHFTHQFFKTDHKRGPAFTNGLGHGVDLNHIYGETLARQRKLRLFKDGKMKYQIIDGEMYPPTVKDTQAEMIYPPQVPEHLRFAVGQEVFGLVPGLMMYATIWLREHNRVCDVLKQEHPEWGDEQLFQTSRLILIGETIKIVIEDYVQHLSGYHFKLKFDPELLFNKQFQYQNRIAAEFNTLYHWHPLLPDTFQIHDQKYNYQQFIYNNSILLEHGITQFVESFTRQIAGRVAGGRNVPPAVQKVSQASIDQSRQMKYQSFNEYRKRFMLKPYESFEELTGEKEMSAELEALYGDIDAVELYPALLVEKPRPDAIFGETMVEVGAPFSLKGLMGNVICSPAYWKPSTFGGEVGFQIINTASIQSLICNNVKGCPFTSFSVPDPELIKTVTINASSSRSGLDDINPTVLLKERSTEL
Ntsr1: Neurotensin receptor type 1 (Ntsr1, Rattus norvegicus, UniProt P20789)
UniProt P20789, sequence (whole entry, looked up): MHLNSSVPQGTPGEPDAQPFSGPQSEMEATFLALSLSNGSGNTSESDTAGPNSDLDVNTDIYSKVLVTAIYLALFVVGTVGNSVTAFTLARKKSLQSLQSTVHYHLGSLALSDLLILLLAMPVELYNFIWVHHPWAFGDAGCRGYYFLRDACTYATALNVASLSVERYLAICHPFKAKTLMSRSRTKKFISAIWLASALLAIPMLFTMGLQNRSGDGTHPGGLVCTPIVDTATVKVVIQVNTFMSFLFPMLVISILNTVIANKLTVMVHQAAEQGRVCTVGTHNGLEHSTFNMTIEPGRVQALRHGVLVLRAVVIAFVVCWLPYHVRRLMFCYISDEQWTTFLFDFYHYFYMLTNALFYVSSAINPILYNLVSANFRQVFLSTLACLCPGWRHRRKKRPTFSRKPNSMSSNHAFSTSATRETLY
O=C(O)[C@H]1/C(=C/CO)O[C@@H]2CC(=O)N21  storage stability time (plasma; -80 °C): ≥ 6 months
Cc1ccc2nc(CNCCCOc3ccccc3)cc(O)c2c1  EC50 (DRD4 (human); biochemical): 4.2 nM
Cc1nc(NC(=O)N2CCC[C@H]2C(N)=O)sc1-c1ccnc(C(C)(C)C(F)(F)F)c1  remaining binding (PIK3C2B; KinomeScan competition binding; 10 µM): 4%
CCOc1cc(N2C3COCC2CN(C(=O)[C@H]2C[C@H](O)CN2c2ccc(Cl)cc2)C3)ccc1Cl  IC50 (CCR1; biochemical): 3 nM
N/C(CC(O)c1cc2c(F)cc(F)cc2c2cc(C(F)(F)F)ccc12)=N\c1ccc(F)cc1 (centres unmarked)  IC50 (Plasmodium falciparum; parasite growth; 7G8): 3 nM
Cn1c(=O)oc2ccc(-c3ccc(C[C@@H](C#N)NC(=O)[C@@H]4CNCCCO4)cc3)cc21  inhibition (neutrophil elastase human; bronchiectasis patients, sputum; dose not given): ~90%
CCOC(=O)/C=C/c1ccc(OC)cc1  IC50 (PTGS2; inhibitor): 830 nM
CC(C)N[N+]([O-])=N[O-].[Na+]  HNO release half-life (pH 7.4, 37 °C): 2.3 min
CNC(=O)c1cc(F)c(-c2nc3cc(C)ccn3c2C[C@H]2CN(C(=O)OC)CCO2)c(F)c1  IC50 (P2X3 (rat)): 92 nM
CCc1c(Cl)c(O)c(Cl)c(O)c1C(=O)O[C@H]1[C@H](O)[C@H](OC)[C@H](OC/C2=C\C=C\C[C@H](O)/C(C)=C/[C@H](CC)[C@@H](O[C@@H]3OC(C)(C)[C@@H](OC(=O)C(C)C)[C@H](O)[C@@H]3O)/C(C)=C/C(C)=C/C[C@@H]([C@@H](C)O)OC2=O)O[C@@H]1C  MIC (Enterobacter aerogenes; ATCC 35029): > 128 µg/mL
COC(=O)N[C@@H](C)CNc1nccc(-c2cn(C(C)C)nc2-c2cc(Cl)cc(NS(C)(=O)=O)c2F)n1  CYP3A4 induction (human primary hepatocytes; inducer; concentration not given): increased
CC(O)C(C)n1ncn(-c2ccc(N3CCN(c4ccc(OCC5COC(Cn6cncn6)(c6ccc(Cl)cc6Cl)O5)cc4)CC3)cc2)c1=O (centres unmarked)  solubility (pH 7): 1 µg/mL (≈ 1.39 µM)
CS(=O)(=O)Nc1cc2occ(NC=O)c(=O)c2cc1Oc1ccccc1  IC50 (PTGS2; inhibitor): 20000 nM
O=c1oc2c(O)c(O)cc3c(=O)oc4c(O)c(O)cc1c4c23  solubility: < 10 µg/mL
COCCCC/C(=N\OCCN)c1ccc(C(F)(F)F)cc1  Cmax (human; oral, 100 mg single dose): 36 ng/mL
Nc1cc(C(F)(F)F)c(-c2nc(N3CCOCC3)nc(N3CCOCC3)n2)cn1  remaining binding (PIK3C2B; KinomeScan competition binding; 10 µM): 41%
CCCCN(CCCC)CC(O)c1cc(Cl)cc2c1-c1ccc(Cl)cc1/C2=C/c1ccc(Cl)cc1 (centres unmarked)  IC50 (Plasmodium falciparum; 3D7): 6.4 ± 3.2 nM
Oc1ccc(-c2nc(-c3ccc(OC4CCCC4)cc3)no2)cc1  MIC (Enterobacter aerogenes; ATCC 35029): > 128 µg/mL
Cn1c(=O)c2c(ncn2C)n(C)c1=O  Cmax (human, plasma; oral, 100 mg, single dose with coffee): 1340 ng/mL
COCCc1ccc(-c2c(C)nc3c(N4CCOCC4)ccnn23)cn1  Ki (PDE1B): 3400 nM
[Na+].[Na+].[O-][N+]([O-])=NO  HNO release half-life (pH 7.4, 37 °C): 2.5 min
COc1cccc(OC)c1-c1cc(C(=O)NC2(C(=O)O)CCCCC2)nn1-c1ccnc2cc(Cl)ccc12  Ke (Ntsr1; antagonist, FLIPR calcium): 157 ± 45 nM
CS(=O)(=O)NCC[C@H](NC(=O)c1cncc2c1cnn2-c1ccc(F)cc1)c1ccnc(S(C)(=O)=O)c1  IC50 (CCR1; biochemical): > 3000 nM
COc1cccc(OC)c1-c1cc(C(=O)N[C@H](C(=O)O)C2CCCCC2)nn1-c1ccnc2cc(Cl)ccc12  Ke (Ntsr1; antagonist, FLIPR calcium): 23 ± 6 nM
COc1cccc2c1OCC(C(=O)Nc1ccc3c(c1)CN(C1CCC(=O)NC1=O)C3=O)=C2 (centres unmarked)  half-life: 480 min

For quick reference, copied from above (set 1):
CCCC(CCC)C(=O)O: inactive
CCCCNc1cc(C(=O)O)cc(S(N)(=O)=O)c1Oc1ccccc1: inactive
CCn1cc(C(=O)O)c(=O)c2cc(F)c(N3CCNCC3)cc21: inactive
CCCNC(=O)NS(=O)(=O)c1ccc(Cl)cc1: inactive
CN(C)CCOC(C)(c1ccccc1)c1ccccn1 (centres unmarked): inactive
COc1ccc2[nH]c([S+]([O-])Cc3ncc(C)c(OC)c3C)nc2c1 (centres unmarked): inactive
CCN(CC)C(=O)C1(c2ccccc2)CC1CN.Cl (centres unmarked): inactive
CC(=O)O[C@]1(C(C)=O)CC[C@H]2[C@@H]3C[C@H](C)C4=CC(=O)CC[C@]4(C)[C@H]3CC[C@@]21C: inactive
